Measurements pooled from the literature.
Numbered parts are unrelated; each lists some results of a single study. Substitutions count along the parent as printed.

Block 1 — method: RNA Bind-n-Seq; form: RNA; sample: in vitro; tested at: 1 µM; notes: whole 134-nt RNA, ends assumed; together with: 150 mM KCl; baseline: input library; reading: higher = stronger binding; quantity: log2 enrichment
Target: Ras GTPase-activating protein-binding protein 1, RRM domain (G3BP1, Homo sapiens, UniProt Q13283)
Chain of UniProt Q13283 (whole entry, looked up): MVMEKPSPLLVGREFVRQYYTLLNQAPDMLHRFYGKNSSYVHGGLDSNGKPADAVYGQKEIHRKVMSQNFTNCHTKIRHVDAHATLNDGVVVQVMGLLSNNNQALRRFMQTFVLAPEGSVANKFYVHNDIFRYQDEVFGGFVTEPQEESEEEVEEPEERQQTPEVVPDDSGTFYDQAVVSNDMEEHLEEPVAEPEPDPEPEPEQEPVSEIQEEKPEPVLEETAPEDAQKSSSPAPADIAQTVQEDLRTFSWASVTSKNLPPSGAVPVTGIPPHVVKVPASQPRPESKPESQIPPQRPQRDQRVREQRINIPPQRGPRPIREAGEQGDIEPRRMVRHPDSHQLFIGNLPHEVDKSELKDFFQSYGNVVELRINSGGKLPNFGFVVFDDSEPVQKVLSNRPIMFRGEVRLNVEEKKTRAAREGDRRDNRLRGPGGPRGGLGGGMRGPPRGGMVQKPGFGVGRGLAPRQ
Constant ends, left off below: GGGAGUUCUACAGUCCGACGAUC … UGGAAUUCUCGGGUGUCAAGG
UGGGAGGUGGAUUUUGUUUAUUUUUUUAGCUCAUUUCCAGGGGUGGGAAUUUUUUUUUAAUAUGUGUCAUGAAUAAGGUUGUUUUUGAAA: 0.832
CACAGACAACACGCACCCACACAGACACAGAGGGAAGGGGUUGGGAUGGGGACAGGGUGCACAGCAGGGCGCGGUAGGACCCCAGCCCCU: -0.296
ACCAUGCAGGUGGGCAUCUUUGGGUAGUGGGGCAAGGGGGGGAUAGGGAGGGGGGUAACACUUUGGGAACAGGUGGUCCCAGGUCGUUUC: -0.574
CCUCAAGUCCUGUGCUACACAUCGUAUGUACCGAAUCGGGGAGGGGAGGGAGGAAAGUAUUAUGUUACGCCGUUCGGAUCUGCACUUCCA: -0.13
AGUCCUGUGCUACACAUCGUAUGUACCGAAUCGGGGUGGGGAAAGGGGAAAAAGGGGAAAGUAUUAUGUUACGCCGUUCGGAUCUGCACU: 0.646
GUCCUGUGCUACACAUCGUAUGUACCGAAUCGGGAAAGGGUUUUUGGGUUUUUUUGGGAAAGUAUUAUGUUACGCCGUUCGGAUCUGCAC: 0.172
GCAGGAAGUAAAAACAAAUGGAAAUGCUUCGGAUAGUGGCAGGGGUGGGGGUUGCUAAGGAAAGGGAAAGAUGGGAGUGGGUAAAGAGUU: 1.08
GUCCUGUGCUACACAUCGUAUGUACCGAAUCGGGGCCCCCGGGCCCCCGGCCCCCGGGGAAAGUAUUAUGUUACGCCGUUCGGAUCUGCA: -0.616
UCAAGUCCUGUGCUACACAUCGUAUGUACCGAAUCGGAGGUUUGGAAAAAAAGGAAAGUAUUAUGUUACGCCGUUCGGAUCUGCACUUCC: -0.184
CAGUUUAAGAGGGGUUUCAUGCAAGGGCAUGUAAAUAGACAAGAAAAAGAAGAAAAAGAAGCAAUAUAUAAAGAACGUUGGCCAGAUUAU: 0.162
UUCCCUGGUGUGAUUCCGUCCUGCGCGGUUGUUCUCUGGAGCAGCGUUCUUUUAUCUCCGUCCGCCUUCUCUCCUACCUAAGUGCGUGCC: 0.00242
CACAGACAACACGCACCCACACAGACACAGAGGGAAGGGGUUGGGAUGGGGACAGGGUGCACAGCUGGGCGGGGUAGGACCCCAGCCCCU: 0.0362
CAAGUCCUGUGCUACACAUCGUAUGUACCGAAUCGGUGGAAAAAAAGGAAAAAGGAAAGUAUUAUGUUACGCCGUUCGGAUCUGCACUUC: -0.023
UGGGAGGUGGAUUUUGUUUAUUUUUUUAGCUCAUUUCCAGGGGUGGGAAUUUUUUUCUAAUAUGUGUCAUGAAUAAAGUUGUUUUUGAAA: 1.15

Block 2 — method: RNA Bind-n-Seq; form: RNA; sample: in vitro; tested at: not given; notes: RNA with constant flanks, ends assumed; baseline: input RNA pool; reading: higher = stronger binding; quantity: bound/input enrichment
Target: RING finger protein unkempt homolog, zinc fingers 1-6, GST-SBP tag (UNK, Homo sapiens, UniProt Q9C0B0, residues 30-357)
Chain of UniProt Q9C0B0 (30-357, looked up): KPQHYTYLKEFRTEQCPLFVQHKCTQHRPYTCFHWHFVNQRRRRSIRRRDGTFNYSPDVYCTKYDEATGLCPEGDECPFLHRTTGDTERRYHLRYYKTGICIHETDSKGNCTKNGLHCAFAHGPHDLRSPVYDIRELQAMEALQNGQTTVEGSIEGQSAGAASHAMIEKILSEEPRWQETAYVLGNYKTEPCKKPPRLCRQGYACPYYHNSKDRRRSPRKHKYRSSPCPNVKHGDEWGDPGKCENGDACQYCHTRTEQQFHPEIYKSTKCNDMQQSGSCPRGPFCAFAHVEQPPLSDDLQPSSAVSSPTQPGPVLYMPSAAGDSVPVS
Constant ends, left off below: GGGAGUUCUACAGUCCGACGAUC … CAACAGAGGAUUGAGCAUCA
GAACAUGUUGACAAACUGAAAAUCCCUCCUGAAGAAAUGAAACAAAUGGAACAAAAGUUGAUCCGAGACUUCCAAGAAUAUGUAGAGCCAGGAGAAGACUUCCCGGCUUCUCCCCAGAGA: 0.608 ratio
CUGUUGUAUGAAAGGAGAGAAGGAUAACAAAUUGCGGUUUUCCCUGGUAAACACAGUAAGCCGUAAACUCAGGAUUCAAAACCAAAUAUACACACCAAAUCCACUAUGUAAUAUUAAGUU: 0.246 ratio
GAUGAAUUGAUGACCCUGGCUCAUAAACACAUUGUCAAGACUGUGGAUUUCACGCAGGACCGUAAUUAUUUGUUAACCGGGGGACAGGAUAAACUGUUACGCAUAUAUGACUUGAACAAA: 0.217 ratio
GGUCAUCGCGCCCUUUCCCCUGCCGGUGUCCUGCUCGCCGUCCCCGCCAUGCUGUCUCCCGACUUUUUGGACGAUGUGCGGCGGAUGAACAAGCGGCAGCUCUAUUAUCAAGUCCUAAAU: 0.0943 ratio
UGGUCAAUAUUCCUAGGAAUGGGAACAUUACUCUGGGGCCAGCUUAUUUCAACAAUUCCAACCCGCCGUUUAAAAUUCCUCAAAGAAGCUGGUCAUGGAACACAAAAGGAAGAAAUACCU: 0.399 ratio
GGUAAGUGGGGGCAAGUGGGGGCAAGGGGACAUAUCAUUGUGACAACUUUUUUGAUAUUUACCCGAAAUGAUGCAAUAUAUCCUUUCUGAGAUAUUUACAGUAUUAUUAAAGGGUUGGGC: 1.74 ratio
UGCCACCAUACCCAAUGGAUAGAACUUGAUUUUUAAAAGCUUGUUUUGUCAACUUGUAUGCCGUACAGUGGCCAGUGAUCGCCUAGCCUGCACGAGGCCCCGGGGUUGAUCUCCCGCAUC: 0.245 ratio
AUCUUUAUCUCACAAGAUGAAAUACAGUCAUUUAUGGCUAAUAACCAGUCUUUCUACAGCAACCGAGAACAAUACCGACAGCAUCUGAAGGAGAAAUUUAAUAAAUACUGCCGGUUAAAU: 0.182 ratio
AAGGUAAGACUUAUUUGUAGUAGAUAAAUAGCCACCAUGGAGACCAAGGACCACAAGAAACACCGGAAGAAGCACAGUGGGCCUAAAGCUGAGAAGAAAAAGAAACGGCACCUGCAAGAC: 0.247 ratio
CAGAAAGCUUGACCAAGUUACAUAUUCUAGAGAAUGUCCCGAGUGCCAAGCACGUUUAUACACCGGGCGUGUAUUCCAGUCUUUUCUGUCAUUCUGUGUGUGUGUGUGUGUACGUAUGUG: 0.249 ratio
GUGUAGAGUGUUUAACCGAUGAGUAGAGUACAGUAUUCUCUGGUUAAUAAAAUUAUUCUAUUCCGUGCACUUGUUGCACAGAUGAACAUAGACACAAAGAGGCUAUAUGUCUUCUGCUGA: 0.167 ratio

Block 3 — target: CCNB1, cyclin fold, Cln2 fusion (human); method: yeast growth competition, sequencing; sample: yeast; notes: strong parent motif; baseline: not given; reading: higher = stronger binding; quantity: normalised enrichment score
Starting sequence: E2F1 docking peptide (human); PPVKRRLDLETDH; partner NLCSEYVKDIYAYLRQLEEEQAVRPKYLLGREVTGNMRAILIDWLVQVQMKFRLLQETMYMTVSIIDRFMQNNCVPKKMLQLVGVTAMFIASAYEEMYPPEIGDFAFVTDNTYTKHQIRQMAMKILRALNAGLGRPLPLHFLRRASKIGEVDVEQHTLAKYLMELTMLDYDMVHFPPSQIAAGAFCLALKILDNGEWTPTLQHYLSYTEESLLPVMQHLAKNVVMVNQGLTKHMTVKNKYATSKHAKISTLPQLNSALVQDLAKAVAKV
R6Q: 1.03
R5V: -0.121
E10V: 0.629
V3M: 0.224
L7M: 0.00561
P2D: 1.7
P1W: 1.85
D8V: 1.37
P1N: 1.03
L7P: 0.627
P2Y: 0.992
D12G: 1.07
V3E: 0.467

Block 4 — target: TEF, bZIP domain (human); method: DHFR protein complementation; sample: yeast; baseline: wild-type JUN-FOS pair; reading: higher = stronger binding; quantity: binding fitness
Notes: single substitutions, most at no-binding floor
Starting sequence: JUN, bZIP domain (human); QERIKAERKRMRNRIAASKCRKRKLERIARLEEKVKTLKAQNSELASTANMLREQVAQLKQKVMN; partner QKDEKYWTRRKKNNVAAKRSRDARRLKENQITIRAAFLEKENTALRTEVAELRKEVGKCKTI
T37D: -1.37 natural log
S47D: -1.44 natural log
E44H: -1.44 natural log
T37V: -1.29 natural log
Q41A: -1.43 natural log
L52C: -1.5 natural log
A46I: -1.39 natural log
E54L: -1.48 natural log
Q41V: -1.53 natural log
K34S: -1.22 natural log
K34F: -1.58 natural log
R53V: -1.16 natural log
A29L: -1.48 natural log
T48F: -1.15 natural log
I28L: -1.34 natural log
I28R: -1.39 natural log
A29C: -1.53 natural log
L52M: -1.38 natural log
E44C: -1.57 natural log
K39T: -1.5 natural log
E54K: -1.54 natural log
E32L: -1.3 natural log

Block 5 — method: DHFR PCA, deep sequencing; sample: yeast; together with: (+)-ABA 710 µM; baseline: wild-type fitted maximum; reading: higher = stronger binding; quantity: relative binding score
Target: ABI1, truncated, D143A, DHFR fusion (Arabidopsis thaliana)
Notes: methotrexate growth selection, single substitutions
Starting sequence: PYL1, truncated, DHFR fusion (Arabidopsis thaliana); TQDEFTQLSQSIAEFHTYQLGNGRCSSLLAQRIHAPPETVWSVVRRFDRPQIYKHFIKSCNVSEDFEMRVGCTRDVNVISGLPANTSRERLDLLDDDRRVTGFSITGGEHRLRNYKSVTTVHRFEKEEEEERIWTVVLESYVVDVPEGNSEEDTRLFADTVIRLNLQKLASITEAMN
A175W: 91.3%
Q31D: 19.7%
E151F: 95.9%
D144T: 86.2%
N114K: 88.2%
G81L: 22.4%
V43L: 101%
F66L: 94.3%
S63Y: 94.7%
E151W: 89.4%
I79K: 103%
R132A: 113%
P83F: 25.3%
E131K: 114%
N85R: 103%
T1N: 105%
E4S: 92.2%

Block 6 — method: protein binding microarray; form: double-stranded DNA, one strand shown; sample: in vitro; tested at: not given; baseline: not given; reading: higher = stronger binding; quantity: E-score
Target: Histone acetyltransferase KAT6A, winged helix 1, GST fusion (KAT6A, Homo sapiens, UniProt Q92794, residues 1-85)
Notes: 8-mer, flanks averaged, mean of 2 arrays, mostly near background
Target sequence (chain): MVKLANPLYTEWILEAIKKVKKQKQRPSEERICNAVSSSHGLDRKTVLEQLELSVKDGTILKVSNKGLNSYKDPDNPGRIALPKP
GGAAATTA: 0.00296
CACTGGCC: -0.0115
AGGGCGCC: 0.232
AAACATCG: -0.0652
TGAGTCCA: -0.138
TGTGGTAA: -0.271
ATTGGCGC: 0.213
GTCGCGAA: 0.172
GGGACACC: 0.0835
ACCAGTAC: -0.0925
AACGACTG: -0.0254
ACTTCGGG: -0.0346
GGCGACGA: 0.0616
AAATGCCT: -0.242
GCACCGCC: 0.274
GCGGGGTA: 0.298
CGTGGCAA: -0.0366
CTGGTGCA: -0.158
TCGATAGA: -0.123
GACGTGAA: -0.048
CACACTTC: -0.147
GTAATCAA: -0.0407
ACGCTCAC: 0.136
CCGAGAGC: 0.132
AGCTGAAC: -0.324

Repeated from above (block 4):
K34F: -1.58 natural log
R53V: -1.16 natural log
A29L: -1.48 natural log
T48F: -1.15 natural log
I28L: -1.34 natural log
I28R: -1.39 natural log
A29C: -1.53 natural log
L52M: -1.38 natural log
E44C: -1.57 natural log
K39T: -1.5 natural log
E54K: -1.54 natural log
